Assay results of several laboratories.
Protocols differ between the studies behind these lines. Several values in a cell are separate wells, animals, samples, runs or records. ± gives the spread as reported.
Target: Broad substrate specificity ATP-binding cassette transporter ABCG2 (ABCG2, Homo sapiens, UniProt Q9UNQ0)
Sequence (Q9UNQ0 1-655, as in one of the studies): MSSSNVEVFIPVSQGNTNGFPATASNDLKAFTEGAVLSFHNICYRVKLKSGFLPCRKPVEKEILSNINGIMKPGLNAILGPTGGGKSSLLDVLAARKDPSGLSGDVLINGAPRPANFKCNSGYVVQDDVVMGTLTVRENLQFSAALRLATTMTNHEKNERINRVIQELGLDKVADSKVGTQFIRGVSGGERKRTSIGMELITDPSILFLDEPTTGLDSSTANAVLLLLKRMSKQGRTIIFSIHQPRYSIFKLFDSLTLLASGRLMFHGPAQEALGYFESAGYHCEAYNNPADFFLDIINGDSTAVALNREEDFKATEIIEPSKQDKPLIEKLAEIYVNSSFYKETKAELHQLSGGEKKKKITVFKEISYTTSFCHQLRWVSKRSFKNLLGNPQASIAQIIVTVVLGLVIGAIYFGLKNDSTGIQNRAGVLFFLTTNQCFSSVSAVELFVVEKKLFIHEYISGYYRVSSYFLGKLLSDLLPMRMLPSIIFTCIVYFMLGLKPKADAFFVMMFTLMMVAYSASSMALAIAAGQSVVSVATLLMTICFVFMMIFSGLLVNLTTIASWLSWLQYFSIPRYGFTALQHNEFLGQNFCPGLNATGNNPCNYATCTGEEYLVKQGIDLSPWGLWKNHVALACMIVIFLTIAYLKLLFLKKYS

SMILES | assay | system | setting | scale | quantity | result
C/C(O)=C(\C#N)C(=O)Nc1ccc(C(F)(F)F)cc1 |  | MDCK-II cells expressing ABCG2 | 5 µM |  | efflux ratio | 40.9
CCOc1cc2ncc(C#N)c(Nc3ccc(OCc4ccccn4)c(Cl)c3)c2cc1NC(=O)/C=C/CN(C)C | bidirectional transwell permeability | MDCKII cells transfected with ABCG2 | 1 µM, 1 h, pH 7.4 |  | Papp A-B | 1.07 ± 0.21 ×10⁻⁶ cm/s
C[C@H](O)C(=O)C1=Nc2c(nc(N)[nH]c2=O)NC1 |  | human | 20 mg/kg, compound alone |  | Tmax | 4 h
CC(C)c1nc(N(C)S(C)(=O)=O)nc(-c2ccc(F)cc2)c1/C=C/[C@@H](O)C[C@@H](O)CC(=O)O | substrate | human EpiIntestinal microtissues | 5 µM, 2 h, added: Ko143 5 µM | baseline: B to A over A to B | efflux ratio | 2.3
COc1ccc2c3c([nH]c2c1)[C@H](CC(C)C)N1C(=O)[C@H](CC(=O)O)NC(=O)[C@@H]1C3 | PPIX efflux, inhibitor | A549 | 1 µM, 2 h, added: 1 mM ALA |  | inhibition | 18%
C/C(O)=C(\C#N)C(=O)Nc1ccc(C(F)(F)F)cc1 |  | Caco-2 | 1 µM, 2 h, pH 7.4, added: 2 µM Ko143 |  | Papp A to B | 18.9 ×10⁻⁶ cm/s
CN1C[C@@H]2C[C@H]1CN2c1cc2c(cc1F)c(=O)c(C(=O)O)cn2C1CC1 | substrate | MDCK-II transduced with human ABCG2 | 10 µM, 4 h, basolateral to apical |  | transport | 41.5 ± 11.6%
Cc1cc(=O)oc2cc(O[C@@H]3O[C@H](C(=O)O)[C@@H](O)[C@H](O)[C@H]3O)ccc12 | transport | membrane vesicles |  |  | Km | 27 µM
Cc1cc(Nc2ncnc3ccc(NC4=NC(C)(C)CO4)cc23)ccc1Oc1ccn2ncnc2c1 | bidirectional transwell permeability | MDCKII cells transfected with ABCG2 | 1 µM, 1 h, pH 7.4 |  | efflux ratio | 7.79 ± 1.41
COc1ccc2c3c([nH]c2c1)[C@H](CC(C)C)N1C(=O)[C@H](CC(=O)NC(C)C)NC(=O)[C@@H]1C3 | inhibitor, item: protoporphyrin IX | A549 | 0.01 µM, 2 h, added: 1 mM ALA |  | inhibition | 2.5% and 38.4% and -0.0726% and 14.8%
CS(=O)(=O)CCNCc1ccc(-c2ccc3ncnc(Nc4ccc(OCc5cccc(F)c5)c(Cl)c4)c3c2)o1 | bidirectional transwell permeability | MDCKII cells transfected with ABCG2 | 1 µM, 1 h, pH 7.4 |  | Papp A-B | 0.53 ± 0.39 ×10⁻⁶ cm/s
C[C@]12CCCN1CC1=NNC(=O)c3cc(F)cc4[nH]c2c1c34 | substrate | membrane vesicles | 30 µM | baseline: ATP over AMP | uptake ratio | 0.926

Excerpt of the above:
SMILES | assay | system | setting | scale | quantity | result
C/C(O)=C(\C#N)C(=O)Nc1ccc(C(F)(F)F)cc1 |  | MDCK-II cells expressing ABCG2 | 5 µM |  | efflux ratio | 40.9
CCOc1cc2ncc(C#N)c(Nc3ccc(OCc4ccccn4)c(Cl)c3)c2cc1NC(=O)/C=C/CN(C)C | bidirectional transwell permeability | MDCKII cells transfected with ABCG2 | 1 µM, 1 h, pH 7.4 |  | Papp A-B | 1.07 ± 0.21 ×10⁻⁶ cm/s
